Measurements collected from several papers.
Numbered parts are unrelated; each lists some results of a single study.

Study 1 — method: protein binding microarray; form: double-stranded DNA, one strand shown; sample: in vitro; tested at: not given; baseline: not given; direction: higher = stronger binding; quantity: E-score
Target: Histone acetyltransferase KAT6A, winged helix 1, GST fusion (KAT6A, Homo sapiens, UniProt Q92794, residues 1-85)
Notes: 8-mer, flanks averaged, mean of 2 arrays, mostly near background
Residues (chain): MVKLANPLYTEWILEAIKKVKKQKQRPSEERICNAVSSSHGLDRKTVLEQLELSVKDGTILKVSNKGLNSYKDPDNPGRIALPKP
Strand = AATCATTA; result = -0.113
Strand = CAGTGACG; result = -0.0158
Strand = CATCGTAG; result = 0.0289

Study 2 — method: protein-binding microarray; form: double-stranded DNA, one strand shown; sample: in vitro; tested at: 250 nM; notes: 60-bp whole probe; with: salmon DNA 0.4 mg/ml; baseline: random background probes; direction: higher = stronger binding; quantity: log fluorescence
Target: Interferon regulatory factor 5, full length, phosphomimetic (IRF5, Homo sapiens, UniProt Q13568-2, residues 1-514, K96S/S451D/S453D/S456D/S462D)
Strand = GCCTAGCACTCATATATGCATGTAAAACTGTGCTAGGTCTTGATTCGCTTGACGCTGCTG; result = 0.422 z-score
Strand = GCCTAGCACTTAGAACTGAGTCTCGCTTAGTGCTAGGTCTTGATTCGCTTGACGCTGCTG; result = 0.245 z-score
Strand = GCCTAGCACTTAGGTCTCGGGTTCGGTTAGTGCTAGGTCTTGATTCGCTTGACGCTGCTG; result = 0.139 z-score
Strand = GCCTAGCACGACGGTATCGACTTTAGGGACGTGCTAGTCTTGATTCGCTTGACGCTGCTG; result = 2.04 z-score

Study 3 — method: universal PBM; form: double-stranded DNA, one strand shown; sample: in vitro; tested at: not given; direction: higher = stronger binding; quantity: E-score
Target: Sal-like protein 4, full length isoform B (SALL4, Homo sapiens, UniProt Q9UJQ4-2, residues 1-616)
Notes: 8-mer, flanks averaged, mean of replicates
Residues (chain): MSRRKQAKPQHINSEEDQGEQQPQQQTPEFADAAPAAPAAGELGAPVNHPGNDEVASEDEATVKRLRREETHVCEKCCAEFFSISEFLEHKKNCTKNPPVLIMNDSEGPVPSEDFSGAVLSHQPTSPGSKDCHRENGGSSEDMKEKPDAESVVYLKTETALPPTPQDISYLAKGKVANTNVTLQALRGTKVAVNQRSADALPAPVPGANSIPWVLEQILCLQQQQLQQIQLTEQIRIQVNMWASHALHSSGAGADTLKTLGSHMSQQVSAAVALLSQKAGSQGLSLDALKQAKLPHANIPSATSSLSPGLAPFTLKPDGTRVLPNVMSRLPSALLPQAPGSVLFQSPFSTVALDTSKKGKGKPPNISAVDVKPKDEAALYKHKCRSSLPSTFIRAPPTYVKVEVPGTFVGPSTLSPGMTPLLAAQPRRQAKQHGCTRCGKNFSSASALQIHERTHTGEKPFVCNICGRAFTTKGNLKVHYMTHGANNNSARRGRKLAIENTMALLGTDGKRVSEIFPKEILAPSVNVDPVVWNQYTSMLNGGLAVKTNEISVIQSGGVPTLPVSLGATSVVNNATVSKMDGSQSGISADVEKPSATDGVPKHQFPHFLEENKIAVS
Strand = CACTTATA; result = 0.275
Strand = AAACGCCC; result = -0.0822
Strand = ACATTGCC; result = -0.0717
Strand = GGCGCTGA; result = -0.206

Mixed results
Substance = PhoQ, residues 284 288 289 292 302 303 TASMAF; target = PhoP, residues 12 14 15 18 19 QQAYL (Escherichia coli, UniProt P23836); test = Sort-seq, item: YFP reporter; system = E. coli; conditions = PhoQ-PhoP variant library, with: 10 µM Mg2+; how to read = baseline: high Mg2+ state, higher = stronger signaling; quantity = fold induction; result = 21.7

Excerpt of the above (mixed results):
Substance = PhoQ, residues 284 288 289 292 302 303 TASMAF; target = PhoP, residues 12 14 15 18 19 QQAYL (Escherichia coli, UniProt P23836); test = Sort-seq, item: YFP reporter; system = E. coli; conditions = PhoQ-PhoP variant library, with: 10 µM Mg2+; how to read = baseline: high Mg2+ state, higher = stronger signaling; quantity = fold induction; result = 21.7
